Results collected from several papers.
Each numbered part is a random draw from the data of one study; scales do not carry over between parts. Changes are numbered by the printed parent chain.

Series 1
Target: CCND2, cyclin fold, Cln2 fusion (human)
Method: yeast growth competition, sequencing
Sample: yeast
Notes: weak parent motif
Reference: not given
Direction: higher = stronger binding
Starting sequence: HASPIN docking peptide (human); ASLRSVLFGLMNS
`AALRSVLFGLMNS [S2A]`: “normalised enrichment score” -0.882.
For `ASLASVLFGLMNS [R4A]`, “normalised enrichment score” read -1.08.
Under “normalised enrichment score”, `ASLRSVLFGAMNS [L10A]` is recorded as -0.147.
Under “normalised enrichment score”, `ASLRSALFGLMNS [V6A]` is recorded as -0.114.
`ASLRSVAFGLMNS [L7A]` — result for “normalised enrichment score”: 0.0102.
`ASLRSVLFGLANS [M11A]` — result for “normalised enrichment score”: -0.129.

Series 2
Target: Interferon regulatory factor 5, full length, phosphomimetic (IRF5, Homo sapiens, UniProt Q13568-2, residues 1-514, S451D/S453D/S456D/S462D)
Method: protein-binding microarray
Form: double-stranded DNA, one strand shown
Sample: in vitro
Tested at: 940 nM top
Notes: 60-bp whole probe
Added: salmon DNA 0.4 mg/ml
Reference: random background probes
Direction: higher = stronger binding
All sequences stand within: GCCTAGCAC … GTCTTGATTCGCTTGACGCTGCTG
For `TTAGGTTTCGGGTATCGGTTGGTGCTA`, “fitted relative affinity” read 11.8 z-score.
Under “fitted relative affinity”, `TTAGGACTGGACACTCGGTTAGTGCTA` is recorded as -0.471 z-score.
`GACGGTCTCGTACTGGGGACGTGCTAG` — result for “fitted relative affinity”: 0.305 z-score.
`TTAGGTCTGCTTTTCCTTTAGTGCTAG` — result for “fitted relative affinity”: 0.117 z-score.
Under “fitted relative affinity”, `GACGATATAAGACTGGAGACGTGCTAG` is recorded as -0.572 z-score.
For `GACGATATCAGTCTCGAGGCGTGCTAG`, “fitted relative affinity” read 0.899 z-score.
`TCAGATTTACAAACTGTGACTGTGCTA`: “fitted relative affinity” 0.00132 z-score.
`TCATTTGTCATCTATAATACTGTGCTA`: “fitted relative affinity” 0.696 z-score.
Under “fitted relative affinity”, `GACGATTTCAGTTCCGAGGCGTGCTAG` is recorded as 1.11 z-score.
For `GACAGTTTCGGGTTTCGGGACGTGCTA`, “fitted relative affinity” read 9.64 z-score.
`TGCTATACCACTCTTGCTTTGTGCTAG` — result for “fitted relative affinity”: 0.533 z-score.
For `TCAATTTTTACCCTCCTACTGTGCTAG`, “fitted relative affinity” read 1.21 z-score.
`GACCATTTCGGGTTTCGAGACGTGCTA` — result for “fitted relative affinity”: 2.16 z-score.
Under “fitted relative affinity”, `TTAGATTTCAATATCGATTAGTGCTAG` is recorded as 0.888 z-score.
`TCAATTGTGGTTTTCATACTGTGCTAG` — result for “fitted relative affinity”: 0.497 z-score.
Under “fitted relative affinity”, `TTAGGACTGGCGTTTCGGTTAGTGCTA` is recorded as 1.29 z-score.
`TCAGAAATCTCTTTCCTACTGTGCTAG` — result for “fitted relative affinity”: 0.453 z-score.
For `TCAACAATGGCTTTGCCACTGTGCTAG`, “fitted relative affinity” read -0.472 z-score.
For `GACGATTTCGGGTTTCAAGACGTGCTA`, “fitted relative affinity” read 0.935 z-score.
Under “fitted relative affinity”, `GACGGTATCCTTTCCCTGACGTGCTAG` is recorded as 0.57 z-score.
`GACGGACTGCCACTGCTGACGTGCTAG` — result for “fitted relative affinity”: -0.883 z-score.

Series 3
Target: RING finger protein unkempt homolog, zinc fingers 1-6, SBP tag (UNK, Homo sapiens, UniProt Q9C0B0, residues 30-357)
UniProt Q9C0B0, sequence (30-357, looked up): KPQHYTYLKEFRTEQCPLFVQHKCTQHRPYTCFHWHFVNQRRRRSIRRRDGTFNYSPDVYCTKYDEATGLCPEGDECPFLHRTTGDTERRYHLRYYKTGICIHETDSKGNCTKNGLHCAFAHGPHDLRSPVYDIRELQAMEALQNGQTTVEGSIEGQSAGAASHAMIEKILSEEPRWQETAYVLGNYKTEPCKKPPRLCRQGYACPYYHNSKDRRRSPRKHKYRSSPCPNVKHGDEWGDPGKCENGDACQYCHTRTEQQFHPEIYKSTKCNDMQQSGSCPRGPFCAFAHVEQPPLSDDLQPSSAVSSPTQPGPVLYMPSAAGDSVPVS
Method: RNA Bind-n-Seq
Form: RNA
Sample: in vitro
Tested at: 100 nM
Notes: RNA with constant flanks, vertebrate orthologous sites, ends assumed
Reference: input RNA pool
Direction: higher = stronger binding
All sequences stand within: GGGAGUUCUACAGUCCGACGAUC … CAACAGAGGAUUGAGCAUCA
With `UUGGGAACAGCUCUCCAAACAGGAAUAGUAGUAAAAAAAUUAAGCAAAAUGAUAUGUGUAUAGAAAAAACAGAAGUUAAAUCAUGUAAAGUAAAUGCUGCCAACCUUCCUGGUCCUAAAG` the bound/input enrichment was 1.26 ratio.
The bound/input enrichment of `AUUCAAACCUGUGGUACCAUGGCCUCAUGUUGAAGGAGUAGAAGUGGACUUAGAGUCUAUUAGAAGAAUAAACAAGGCCAAAAAUGAACAAGAGCACCAUGCUGGAGGAGAUUCCCAGAA` is reported as 0.384 ratio.
With `CUACUAUAAACAACUCAGGGCAGUAUUCUCGAUACCCUUACAGUAACCUAAAUCAGGGAUUAGUUAACAAUACAGGGAUGAAUCAAAAUUUAGGCCUUACAAAUAAUACUCCAAUGAAUC` the bound/input enrichment was 1.72 ratio.
`CUCCUCUUAAUCCCAUCUCAUCUGUUUCAUAGUGCUGAAAUUCCAUCUUCAGCCUUAUUUUUAGCGAACUUAUUCUAAUUCUAGAGAAACUUCCAGUGGAUACUGUGAGCUAUAUGGAGA` gave a bound/input enrichment of 1.3 ratio.
For `AGGGAGAAGAGCUCACAAACUCAAAGGGAAACUAUUAAAGAUUUCCUAAUAGUUAAAAGCUAGGAAAGAUUAGGACAACUUUACAAAUGAGCAUUAAAAAGAAAAGGGCUACGGAAACCA`, the bound/input enrichment was 0.895 ratio.
For `AAAUUUAUUUCAUGCCCUGGACUCCCUACCGCACUGAUACUUUGAUAGAAUUUGCUUCCUUAGAAGAUUUCCAAAACAGUCGCCAAACAACAACUUACAAACUUCCAAAUCGAGUAGAUG`, the bound/input enrichment was 1.17 ratio.
`GAGGAUUAGGUUCGAUCCUUUACGUGUUAAAAAAGAAAGCGUAAAAACAUUUUAAAAACAUAGAAAAAUUCAGCAAACCAUUUUUAAAGUAGAAGAGGGUUUUAGGUAGAAAAACGUAUU` gave a bound/input enrichment of 1.28 ratio.
The bound/input enrichment of `AAAUUUAUUUCAUGCCCUGGACUCCCUAUCGCACCGAUACUUUAAUAGAAUAUGCUUCUUUAGAAGAUUUCCAAAAUAGUCGCCAAACAACAACCUAUAAACUUCCAAAUCGAGUAGAUG` is reported as 1.15 ratio.
`GUGGGGAUGAGGGUGGGAUGGGAAAGGGAUGUAUGGAUGUUACUGGCAUUUUUAAGUGUUUAGAGUUUUUUGGGGUUUUGGGUUUUUUGUUUUGUUUUGUUUUUCCUUGUUUUCUUUUUU` has a bound/input enrichment of 2.03 ratio.
The bound/input enrichment of `AUUCAGAAUUAUAGCAAGAGCCAAGCAGUAGCAUUGUUUCUCCAUAAAUGUAGAAAUAAUUAGAUCCAGAUUGUUUCCUUAUUCAGUUUCAAAAAUAAAAAAUACCUCAGUGCUAUGUUU` is reported as 1.02 ratio.
With `UUCUAGUACUUAAGCCAAUAGUUCUAAAAUGCUAUUUAUUUGUGUCUGUAAGUUUGUACAUAAUUCCAGCCUCAUUGUUGCGGAAUUAUUUUUUCAUGCAUUUGAGUUUUGCUUGAAAUU` the bound/input enrichment was 0.36 ratio.

Series 4
Target: RNA binding protein fox-1 homolog 2, RRM domain, GST-SBP tag (RBFOX2, Homo sapiens, UniProt O43251-10, residues 100-194)
Method: RNA Bind-n-Seq
Form: RNA
Sample: in vitro
Tested at: 365 nM
Notes: natural RNA segment, single round, ends assumed
Reference: no-protein control
Direction: higher = stronger binding
All sequences stand within: GGGAGUUCUACAGUCCGACGAUC … UGGAAUUCUCGGGUGCCAA
Target sequence (chain): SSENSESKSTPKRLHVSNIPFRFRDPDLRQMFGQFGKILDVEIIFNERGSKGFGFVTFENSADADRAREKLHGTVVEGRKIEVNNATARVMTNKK
Under “RBNS enrichment (R)”, `CUGCUGGAGUCAGACUUACAAAAGCCUUAAGCGGAAAGUGUCCAGACCAGGCUGAGUCAGUAAAGGAGGCGCGGGCCUCGACGCCCACGCUGGCAGCUUUGACAGAAACU` is recorded as 0.328.
`CCCCGGUCCAGGGGAGAGUCACUAGUUGUACCCUACUCCAUUAGGUCCCAAAUGGGGGCCCCAUUUCACCUGUAUCAGGACUCUGAGCAUCCCCAGCUGCCCCACAUCUU`: “RBNS enrichment (R)” 0.514.
For `CACCUCUCGCGGCAGCUGUCAUUUCCAUGUGCACUGGGACGGGAAGUCAAACGAGGAAUUUAAAAAAGCAAAAGUUGACCGAAGGUGCAUUUUUGUUUAGACUCCCUGAG`, “RBNS enrichment (R)” read 0.306.
`AGAUCUCAAUCUUAUCCUUUGCCGCCUGCUAUCACCAUAUGGUGUUGGAUUCAAGUUUAAUUAGCUAAUAACCAUGGAGAUUGUUUUACAACUUUGUGAUAUGGUCAAGC` — result for “RBNS enrichment (R)”: 0.252.
For `CUGCAAAGCUUCUCUCAAGUUCCUUAAUCCUUGAGAAUCUUAAGAGGCUUGCUGGCUGGUGAAAAAGAAAUACAUCCCUCCCUCCAUCACCAUGUGGGGAUGCAGGAAAU`, “RBNS enrichment (R)” read 0.207.
For `CAGGACAGUCUGUCUUAAAUUUCAUAUGAGAACUUCUUCCUCCCUUUGAAGAUCUGUCCAUAUUCAGGAAUCUGAGAGUGUUAAAAAAAGGUACCAAUCAUUGAUUUUUC`, “RBNS enrichment (R)” read 0.438.
`UAUUGCAUGUCUAAAAGCUAGUGCCCUGAGUACUCAUGAAUUCGAUUCCAAGAGUAGUGGUGUAAAUUGCCUUGGAGCCCUGCAUCCACGUCUUGUAACUAACUUUUGAA` — result for “RBNS enrichment (R)”: 10.3.
`UGGAAUCAUGUGUCUGCCCUGUGUAUUGCAGUUUGUAUUGCCACAAGCUAUAUUUAUACCAGUGUCACCCUUUUCUUGUAGAAUAUACUAAUAAUCUGUGCCAACUCUAC` — result for “RBNS enrichment (R)”: 0.383.
`UGUAAAUGGUAACUGACAUUUAAUUAUUAGAAGUACUUACCCCUGCCUUCCUCCAUUUUUAUUCAUGGCUACUUGAGAAAGCAAAAGGAAAAAAUAAUAGUUAUCAGUAG` — result for “RBNS enrichment (R)”: 0.428.
`CUCAGCUGAAUGCCUCCAAGUCCCUGGCCUGUAGCUUCUCCCAGGCUUAUCAUCCAAUCCCCUUUAACUGGGAUAAGAAACCAAAGGAGGAAAUAUUCUCUAUGGUAAUC`: “RBNS enrichment (R)” 0.252.
`GAAAGUCUGAUGCUAAGAUACUGCCUGCACUGGAAUGUUAAACACUAAAUAUAUAACAAGCUGUGUUUUCCUAAGCUGAGAUCUGUUGAAUAAUGUUUACAUUCGUCCCC`: “RBNS enrichment (R)” 0.234.
`GUAUGAUACAUGUAAAAUUAAAAAAACUAUUAGAACUGUACCAUAAUUAUGUUGAAGGUAGAAGUGAUCUUCAAAGAGAUGGCCAUUAACUUAGCAGUGGGACCUCACUU` — result for “RBNS enrichment (R)”: 0.415.

A few entries again (series 4):
`UGGAAUCAUGUGUCUGCCCUGUGUAUUGCAGUUUGUAUUGCCACAAGCUAUAUUUAUACCAGUGUCACCCUUUUCUUGUAGAAUAUACUAAUAAUCUGUGCCAACUCUAC` — result for “RBNS enrichment (R)”: 0.383.
Under “RBNS enrichment (R)”, `CUGCUGGAGUCAGACUUACAAAAGCCUUAAGCGGAAAGUGUCCAGACCAGGCUGAGUCAGUAAAGGAGGCGCGGGCCUCGACGCCCACGCUGGCAGCUUUGACAGAAACU` is recorded as 0.328.
For `CUGCAAAGCUUCUCUCAAGUUCCUUAAUCCUUGAGAAUCUUAAGAGGCUUGCUGGCUGGUGAAAAAGAAAUACAUCCCUCCCUCCAUCACCAUGUGGGGAUGCAGGAAAU`, “RBNS enrichment (R)” read 0.207.
`CUCAGCUGAAUGCCUCCAAGUCCCUGGCCUGUAGCUUCUCCCAGGCUUAUCAUCCAAUCCCCUUUAACUGGGAUAAGAAACCAAAGGAGGAAAUAUUCUCUAUGGUAAUC`: “RBNS enrichment (R)” 0.252.
